Experimental data gathered from unrelated publications.
Each line is one published result; not all experiments were run side by side. Numbers after ± are the reported error.

CCC(C)n1ncn(-c2ccc(N3CCN(c4ccc(OCC5COC(Cn6cncn6)(c6ccc(Cl)cc6Cl)O5)cc4)CC3)cc2)c1=O (stereo not shown)
EC50 (PV3; viral replication; 72 h): 0.83 ± 0.09 µM

Cc1cc2ncn(-c3ccc(OC(C)C)cc3)c2cc1-c1ccc(OC(C)C)cc1
EC50 (vesicular stomatitis virus; viral entry, inhibitor; pseudotyped with Machupo virus glycoprotein): ≤ 0.004 µM

CN(C)c1ccc(N(Cc2cc(Cl)cs2)C(=O)Cc2cncc3cccc(O)c23)cc1
EC50 (SARS-CoV-2 Omicron BQ.1.1; viral replication, nucleocapsid staining; Calu-3): 0.03 ± 0.02 µM

S=c1[nH]nc(NCNc2n[nH]c(=S)s2)s1
EC50 (Xanthomonas oryzae pv. oryzae; bacterial growth): 16 µg/mL

CO[C@H]1/C=C/O[C@@]2(C)Oc3c(C)c(O)c4c(O)c(c(/C=N/N5CCN(C6CCCC6)CC5)c(O)c4c3C2=O)NC(=O)/C(C)=C\C=C\[C@H](C)[C@H](O)[C@@H](C)[C@@H](O)[C@@H](C)[C@H](OC(C)=O)[C@@H]1C
EC50 (Yellow fever virus; viral replication; C6): 0.466 µM

O=C(CCCCl)NCC1CCOC2(CCN(C(=O)C3(c4ccccc4)CCCC3)CC2)C1 (stereo not shown)
EC50 (Venezuelan equine encephalitis virus; viral replication): 3.16 µM

O=c1[nH]c(=O)n([C@H]2C[C@H](O)[C@@H](CO)O2)cc1/C=C/Br
EC50 (vaccinia virus; viral replication; HEL): 17 µM

Cc1cc2nnn(-c3ccc(OC(C)C)cc3)c2cc1-c1ccc(OC(C)C)cc1
EC50 (vesicular stomatitis virus; viral entry, inhibitor; pseudotyped with Machupo virus glycoprotein): ≤ 0.004 µM

O=C(Nc1ccc(N2CCC3(CCC3)CC2)c(C(F)(F)F)c1)c1ccc(CN2C[C@@H]3C[C@H]2CO3)nc1
EC50 (Reston ebolavirus; viral replication; A549): < 0.5 µM

N#C[C@@]1(n2ccc(N)nc2=O)O[C@H](CO)[C@@H](O)[C@H]1O
EC50 (yellow fever virus; viral replication, cell-based): > 10 µM

oseltamivir carboxylate
EC50 (Influenza A virus H3N2; visual CPE score): 9 µM

CN(C)S(=O)(=O)NCC1CCOC2(CCN(C(=O)C3(c4ccccc4F)CCCC3)CC2)C1 (stereo not shown)
EC50 (Venezuelan equine encephalitis virus; viral replication): 7.94 µM

Cn1cnc(Cn2c(=O)[nH]/c(=N\c3cc4cn(C)nc4cc3Cl)n(Cc3cc(F)c(F)cc3F)c2=O)n1
EC50 (canine coronavirus; viral replication, qRT-PCR; CRFK): ~50 µM

Nc1ccn(C[C@@H](CO)OCP(=O)(O)O)c(=O)n1
EC50 (Monkeypox virus; viral replication; HEL 299): 17.2 ± 6.4 µM

CCCCCCCCNC(C)C(O)c1ccc(SC(C)C)cc1 (stereo not shown)
EC50 (SARS-CoV-2; viral replication, GFP plate reader screen; BetaCov/Belgium/GHB-03021/2020; cell-based): > 100 µM

O=C(Nc1ccc(N2CCCCC2)c(F)c1)c1ccc(CN2CCOCC2)cc1
EC50 (Lake Victoria marburgvirus; viral entry; MARV-GP pseudovirus): > 100 µM

NC(=O)c1nc(F)c[nH]c1=O
EC50 (Lyssavirus rabies; viral replication, refers to: RABV; BHK-21): 5.9 µM

NC(CO)(CO)CCc1ccc(Sc2cccc(OCc3ccccc3)c2)cc1Cl
EC50 (SARS-CoV-2; viral replication, high-content imaging screen; cell-based): > 100 µM

O=c1ccn([C@@H]2O[C@](F)(CO)[C@@H](O)[C@H]2O)c(=O)[nH]1
EC50 (Mammarenavirus lassaense; viral replication; HeLa, Togo): 10.1 µM

CC1(C)[C@@H](O[C@H]2O[C@H](C(=O)O)[C@@H](O)[C@H](O)[C@H]2O[C@@H]2O[C@H](C(=O)O)[C@@H](O)[C@H](O)[C@H]2O)CC[C@]2(C)[C@H]3C(=O)C=C4[C@@H]5C[C@@](C)(C(=O)O)CC[C@]5(C)CC[C@@]4(C)[C@]3(C)CC[C@@H]12
EC50 (SARS coronavirus; FRhK-4; 72 h): > 400 µg/mL

CC(C)Oc1ccc(-c2ccc3cnc(-c4ccc(OC(C)C)cc4)n3c2)cc1
EC50 (vesicular stomatitis virus; viral entry, inhibitor; pseudotyped with Lassa virus glycoprotein): > 0.02 µM

O=C(Nc1ccc(N2CCC(F)(F)CC2)cc1)c1cc2occc2n1Cc1ccc(Cl)cc1
EC50 (Marburg virus; pseudovirus entry; A549): > 100 µM

COc1ccc(C(=O)NCC2CCOC3(CCN(C(=O)C4(c5ccccc5)CCCC4)CC3)C2)cc1 (stereo not shown)
EC50 (Venezuelan equine encephalitis virus; viral replication): 20 µM

N#Cc1c(Nc2ccc(F)cc2)n[nH]c1NS(=O)(=O)c1ccc2ccccc2c1
EC50 (Japanese encephalitis virus; viral replication; Vero 76, SA-14): > 25 µM

O=C1CCCN1CC1CCOC2(CCN(C(=O)C3(c4ccccc4)CCCC3)CC2)C1 (stereo not shown)
EC50 (Venezuelan equine encephalitis virus; viral replication): 3.98 µM

CC(C)[C@H](NC(=O)[C@H](CCCNC(=N)N)NC(=O)N[C@@H](Cc1ccccc1)C(=O)O)C(=O)N[C@H](C=O)CCCNC(=N)N
EC50 (SARS-CoV-2 prototype; pseudovirus infection; 48 h): 0.64 µM

Cc1cc2ncc(-c3ccc(OC(C)(C)C)cc3)n2cc1-c1ccc(OC(C)C)cc1
EC50 (vesicular stomatitis virus; viral entry, inhibitor; pseudotyped with Lassa virus glycoprotein): ≤ 0.004 µM

CN(C)C1CCN(C(=O)CN(Cc2ccccc2)c2ccccc2)CC1
EC50 (Marburg virus; pseudovirus entry; A549): > 100 µM

CN(C)S(=O)(=O)NCC1CCOC2(CCN(C(=O)C(=O)c3ccccc3)CC2)C1 (stereo not shown)
EC50 (Venezuelan equine encephalitis virus; viral replication): > 39.8 µM

O=C(N1CCC2(CC1)C[C@@H](CN1CCCCS1(=O)=O)CCO2)C1(c2ccccc2)CCCC1
EC50 (Yellow fever virus; viral replication; Huh-7): > 32 µM

O=c1cnn([C@@H]2O[C@H](CO)[C@@H](O)[C@H]2O)c(=O)[nH]1
EC50 (Junin virus; viral replication, inhibitor; Vero, Candid #1): 0.7 ± 0.5 µM

O=C1c2c(O)c(=O)ccn2N([C@@H]2c3ccccc3SCc3c2ccc(F)c3F)[C@@H]2COCCN12
EC50 (Influenza A virus; viral replication, plaque reduction; A(H7N7) A/environment/Bangladesh/41896/2019; mean): 0.00011 µM

O=C1CCC(=O)N1CC1CCOC2(CCN(C(=O)C3(c4ccccc4)CCCC3)CC2)C1 (stereo not shown)
EC50 (Venezuelan equine encephalitis virus; viral replication): 0.501 µM

O=c1[nH]c(=O)n([C@H]2C[C@H](O)[C@@H](CO)O2)cc1/C=C/Br
EC50 (Vaccinia virus; antiviral activity; HEL, Lederle): 4 ± 2.3 µM

Cc1c(-c2ccccc2)oc2c(C(=O)OC(C)(C)CN3CCCCC3)cccc2c1=O
EC50 (SARS-CoV-2; viral replication, GFP plate reader screen; cell-based): > 100 µM

NC(=O)c1csc([C@@H]2O[C@H](CO)[C@@H](O)[C@H]2O)n1
EC50 (Junin virus; viral replication, inhibitor; Vero, Candid #1): > 100 µM

CC(CN(C)C)CN1c2ccccc2Sc2ccccc21 (stereo not shown)
EC50 (SARS-CoV-2; viral replication, high-content imaging screen; cell-based): > 25.1 µM

O=C(N1CCC2(CC1)CC(CN1CCCS1(=O)=O)CCO2)C1(c2ccccc2)CCCC1 (stereo not shown)
EC50 (Venezuelan equine encephalitis virus; viral replication): 1.58 µM

CC[C@H]1CN2CCc3cc(OC)c(OC)cc3[C@@H]2C[C@@H]1C[C@H]1NCCc2cc(OC)c(OC)cc21
EC50 (Middle East respiratory syndrome-related coronavirus; pseudovirus entry; Huh7.5, spike-pseudotyped HIV-1; 48 h): 0.16 µM

COC(=O)N[C@H](C(=O)N1CCC[C@H]1c1ncc(-c2ccc(-c3ccc(-c4cnc([C@@H]5CCCN5C(=O)[C@@H](NC(=O)OC)C(C)C)[nH]4)cc3)cc2)[nH]1)C(C)C
EC50 (Enterovirus C (poliovirus); viral replication; MRC5): > 29 µM

O=C(NCC1CCOC2(CCN(C(=O)C3(c4ccccc4)CCCC3)CC2)C1)c1ccccc1 (stereo not shown)
EC50 (Venezuelan equine encephalitis virus; viral replication): 15.8 µM

COc1cc2c3cc1Oc1c(OC)c(OC)cc4c1[C@@H](Cc1ccc(O)c(c1)Oc1ccc(cc1)C[C@@H]3N(C)CC2)N(C)CC4
EC50 (SARS-CoV-2; viral replication, GFP plate reader screen; cell-based): 8.51 µM

COC(=O)NCCc1c(C(O)c2ccccc2)[nH]c2ccc(OC)cc12 (stereo not shown)
EC50 (lentivirus, spike-pseudotyped, SARS-CoV-2; viral entry; HEK293): 1 µM

CNCc1ccc(-c2cc(-c3nc(-c4ccc(S(=O)(=O)C(C)C)cc4)cnc3N)on2)cc1
EC50 (SARS-CoV-2; viral replication, high-content imaging screen; cell-based): 8.32 µM

C=CC(=O)Nc1cc(Nc2nccc(-c3cn(C)c4ccccc34)n2)c(OC)cc1N(C)CCN(C)C
EC50 (Severe acute respiratory syndrome coronavirus; pseudoparticle entry; Vero C1008; 48 h): 2.71 µM

CN(C)C(=O)c1cc2cnc(Nc3ccc(N4CCNCC4)cn3)nc2n1C1CCCC1
EC50 (SARS-CoV-2; viral replication, GFP plate reader screen; cell-based): > 100 µM

NC(=O)c1ncn([C@@H]2O[C@H](CO)[C@@H](O)[C@H]2O)n1
EC50 (Mammarenavirus juninense; viral replication, refers to: JUNV; HEK-293T): 2.6 µM

O=C(Nc1ccccc1)OCC(CN1CCCCC1)OC(=O)Nc1ccccc1 (stereo not shown)
EC50 (SARS-CoV-2; viral replication, GFP plate reader screen; cell-based): 15.1 µM

Cc1cc2ncn(-c3ccc(OC(C)(C)C)cc3)c2cc1-c1ccc(OC(C)(C)O)cc1
EC50 (vesicular stomatitis virus; viral entry, inhibitor; pseudotyped with Junin virus glycoprotein): ≤ 0.004 µM

Some of these lines once more:
O=c1cnn([C@@H]2O[C@H](CO)[C@@H](O)[C@H]2O)c(=O)[nH]1
EC50 (Junin virus; viral replication, inhibitor; Vero, Candid #1): 0.7 ± 0.5 µM

O=C1c2c(O)c(=O)ccn2N([C@@H]2c3ccccc3SCc3c2ccc(F)c3F)[C@@H]2COCCN12
EC50 (Influenza A virus; viral replication, plaque reduction; A(H7N7) A/environment/Bangladesh/41896/2019; mean): 0.00011 µM

O=C1CCC(=O)N1CC1CCOC2(CCN(C(=O)C3(c4ccccc4)CCCC3)CC2)C1 (stereo not shown)
EC50 (Venezuelan equine encephalitis virus; viral replication): 0.501 µM

O=c1[nH]c(=O)n([C@H]2C[C@H](O)[C@@H](CO)O2)cc1/C=C/Br
EC50 (Vaccinia virus; antiviral activity; HEL, Lederle): 4 ± 2.3 µM

Cc1c(-c2ccccc2)oc2c(C(=O)OC(C)(C)CN3CCCCC3)cccc2c1=O
EC50 (SARS-CoV-2; viral replication, GFP plate reader screen; cell-based): > 100 µM

NC(=O)c1csc([C@@H]2O[C@H](CO)[C@@H](O)[C@H]2O)n1
EC50 (Junin virus; viral replication, inhibitor; Vero, Candid #1): > 100 µM
